Experimental data collected from several papers.
Compare with care: the assays were run in different laboratories.

CC[C@H](C)[C@H](NC(=O)[C@@H](NC(=O)CN)C(C)C)C(=O)N[C@@H](Cc1ccccc1)C(=O)N[C@@H](CC(N)=O)C(=O)N[C@@H](C)C(=O)N[C@@H](CC(C)C)C(=O)N[C@@H](CCCCN)C(=O)NCC(=O)N[C@H](C(=O)N[C@@H](C)C(=O)N[C@@H](CCCCN)C(=O)N[C@H](C(=O)N[C@H](C(=O)N[C@@H](C)C(=O)N[C@@H](C)C(=O)N[C@@H](CCC(N)=O)C(=O)N[C@@H](CC(C)C)C(=O)N[C@@H](CC(C)C)C(=O)N[C@@H](CCCCN)C(=O)N[C@@H](CCCCN)C(=O)N[C@@H](C)C(=O)N[C@@H](CCCNC(=N)N)C(=O)N[C@H]1CSSC[C@@H](C(=O)O)NC(=O)[C@H](CO)NC(=O)[C@H](CCCCN)NC(=O)[C@H](CC(=O)O)NC(=O)[C@H](CC(C)C)NC(=O)[C@H](CCCCN)NC1=O)C(C)C)[C@@H](C)O)C(C)C — MIC (Staphylococcus aureus; NCTC 10788, Mueller-Hinton broth; together with: MgCl2 1 mM): 2 µM
[O-][N+]1=C(c2ccccc2)C2=NCCCN2c2ncccc21 — MIC (Bacteroides ovatus; ATCC 84834): 0.125 µg/mL
CCCCCCSCC1OC(OC2C(N)CC(N)C(OC3OC(CN)C(O)CC3N)C2O)C(O)C(N)C1O (stereo not drawn) — MIC (Listeria monocytogenes; ATCC 19115): 75 µg/mL
[O-][N+]1=C(c2ccc(Cl)cc2)C2=NCCCN2c2ccccc21 — MIC (Fusobacterium nucleatum; microbial growth; ATCC25586): 0.25 µg/mL
O=C(NCc1nc(-c2ccc(Br)cc2)c[nH]1)Nc1ncc(Sc2ccccn2)s1 — MIC (Bacteroides ovatus; broth microdilution; ATCC 8485; together with: verapamil 50 µg/mL): > 128 µM
CC[C@H](C)[C@H](NC(=O)[C@H](CC(C)C)NC(=O)[C@H](C)NC(=O)[C@H](CO)NC(=O)[C@H](CCCNC(=N)N)NC(=O)[C@@H](N)CO)C(=O)N[C@H](C(=O)N[C@@H](Cc1c[nH]cn1)C(=O)N[C@@H](CCC(N)=O)C(=O)N[C@@H](CCCNC(=N)N)C(=O)N[C@@H](CC(C)C)C(=O)N[C@@H](Cc1ccccc1)C(N)=O)C(C)C — MIC (Trichophyton rubrum; broth microdilution; ATCC 28189): > 400 µg/mL
CC(C)C[C@@H]1NC(=O)[C@H](C)NC(=O)[C@H](NC(=O)[C@H](CO)NC(=O)[C@@H](CCCCN)NC(=O)[C@@H](CC(C)C)N(C)C(=O)[C@@H](N)Cc2ccccc2)[C@H](C)OC(=O)[C@H](CC(C)C)NC1=O — MIC (Bacillus subtilis Bacillus subtilis; ATCC 6051; tested as TFA salt): 32 µg/mL
CC[C@H](C)[C@H](NC(=O)[C@H](CO)NC(=O)[C@H](CO)NC(=O)[C@H](Cc1ccccc1)NC(=O)CN)C(=O)N[C@@H](Cc1ccccc1)C(=O)N[C@@H](CCCNC(=N)N)C(N)=O — MIC (Escherichia coli; ATCC 8739; together with: 1 mM MgCl2): > 128 µM
CN[C@@H]1[C@H](O)[C@H](NC)[C@H]2O[C@]3(O)[C@H](O[C@@H]2[C@H]1O)O[C@H](C)C[C@@]3(O)CNCc1ccccc1 — MIC (Listeria monocytogenes): 25 µg/mL
COc1ccc2ccc3c(c2c1)C=[N+]1C2CCCCC2[N+]2=Cc4cccc(OC)c4[O][Au-]21[O]3.F[P-](F)(F)(F)(F)F (stereo not drawn) — MIC (Klebsiella pneumoniae; bacterial growth, broth microdilution; carbapenem-resistant; 24 h): 10 µM
[O-][N+]1=C(c2ccsc2)C2=NCCCN2c2ccccc21 — MIC (Peptostreptococcus anaerobius): 1 µg/mL
CC1C(=NOCc2cc(-c3ccc(Cl)cc3)no2)C(C)C(c2ccc(Cl)cc2)OC1c1ccc(Cl)cc1 (stereo not drawn) — MIC (Aspergillus flavus; microbial growth): 12.5 µg/mL
c1ccc(CCNC2CCCc3c2[nH]c2ccc(C4CCCCC4)cc32)cc1 (stereo not drawn) — MIC (Staphylococcus aureus; broth microdilution; SG511, cation-adjusted MHB): 2 µg/mL
CC(C)C[C@@H]1NC(=O)[C@H](C)NC(=O)[C@H](NC(=O)[C@H](CO)NC(=O)[C@@H](CCCCN)NC(=O)[C@@H](CC(C)C)NC(=O)[C@H](C)N)[C@H](C(N)=O)OC(=O)[C@H](CC(C)C)NC1=O — MIC (Bacillus subtilis Bacillus subtilis; ATCC 6051; tested as TFA salt): 2 to 4 µg/mL
CC[C@H](C)[C@H](NC(=O)[C@H](CO)NC(=O)[C@H](CO)NC(=O)[C@H](Cc1ccccc1)NC(=O)CN)C(=O)N[C@@H](Cc1ccccc1)C(=O)N[C@@H](CCCNC(=N)N)C(=O)NCC(=O)N[C@H](C(=O)N[C@@H](C)C(=O)N[C@@H](CCCCN)C(N)=O)C(C)C — MIC (Escherichia coli; ATCC 8739; 10% FBS): > 128 µM
CC(C)C[C@@H]1NC(=O)[C@H](C)NC(=O)[C@H](NC(=O)[C@H](CO)NC(=O)[C@@H](CCCCN)NC(=O)[C@@H](C)NC(=O)[C@@H](N)Cc2ccccc2)[C@H](C(N)=O)OC(=O)[C@H](CC(C)C)NC1=O — MIC (Bacillus subtilis Bacillus subtilis; ATCC 6051; tested as TFA salt): 4 to 8 µg/mL
COc1ccc(C2=[N+]([O-])c3ccccc3N3CCN=C23)cc1 — MIC (Peptostreptococcus anaerobius): 0.25 µg/mL
CCCCc1ccc(-c2nc(C)c(C(C)=NNC(=N)N)s2)cc1 — MIC (Staphylococcus aureus; NRS194 MRSA): 1.3 µg/mL
C[N+]1=C2C(c3ccc([N+](=O)[O-])cc3)=[N+]([O-])c3ccccc3N2CCC1 — MIC (Fusobacterium nucleatum; microbial growth; ATCC25586): 0.25 µg/mL
CC[C@H](C)[C@@H]1NC(=O)CNC(=O)[C@H](CCCCN)NC(=O)[C@H](C)NC(=O)[C@H](CCC(=O)O)NC(=O)[C@H](Cc2ccccc2)NC(=O)[C@H](CO)NC(=O)[C@H](CC(C)C)NC(=O)[C@H](C(C)C)NC(=O)[C@H](CC(=O)O)NC(=O)[C@@H](NC(=O)[C@@H](NC(=O)[C@@H](N)C(C)C)[C@@H](C)O)CSSC[C@@H]2NC(=O)[C@H](CO)NC(=O)CNC(=O)CNC(=O)[C@H](CCCCN)NC(=O)[C@H](CCCCN)NC(=O)[C@H](CCCNC(=N)N)NC(=O)[C@H](CC(C)C)NC(=O)[C@H](C)NC(=O)[C@H]([C@@H](C)CC)NC(=O)[C@H](C)NC(=O)[C@H](Cc3c[nH]cn3)NC(=O)[C@H](CC(C)C)NC(=O)[C@H](C)NC(=O)[C@H](CSSC[C@@H](C(=O)N[C@H](C(=O)N[C@@H](C)C(=O)N[C@@H](CCCNC(=N)N)C(=O)N[C@@H](CC(N)=O)C(=O)O)C(C)C)NC(=O)[C@H](C(C)C)NC(=O)CNC(=O)[C@H](CC(N)=O)NC(=O)[C@H](CCC(N)=O)NC2=O)NC(=O)[C@H](C)NC(=O)[C@H](CO)NC(=O)[C@H](Cc2c[nH]cn2)NC(=O)[C@H](CC(N)=O)NC(=O)[C@H](C(C)C)NC(=O)[C@H](C)NC1=O — MIC (Malassezia furfur; broth microdilution; KCTC 7744; 32 °C, YM broth with 1% olive oil): 25 µM
C[N+]1=C2C(c3ccccc3)=[N+]([O-])c3ccccc3N2CCC1 — MIC (Fusobacterium nucleatum; microbial growth; ATCC25586): 2 µg/mL
CC[C@H](C)[C@H](NC(=O)[C@H](CC(C)C)NC(=O)[C@H](CC(=O)O)NC(=O)[C@H](CO)NC(=O)[C@H](CCCNC(=N)N)NC(=O)[C@@H](N)CO)C(=O)N[C@H](C(=O)N[C@@H](Cc1c[nH]cn1)C(=O)N[C@@H](CCC(N)=O)C(=O)N[C@@H](CCCNC(=N)N)C(=O)N[C@@H](CC(C)C)C(=O)N[C@@H](Cc1ccccc1)C(N)=O)C(C)C — MIC (Trichophyton rubrum; broth microdilution; ATCC 28189): > 400 µg/mL
C[N+]1=C2C(c3ccc(Cl)cc3)=[N+]([O-])c3ccccc3N2CCC1 — MIC (Peptostreptococcus anaerobius): 16 µg/mL
CC[C@H](C)[C@H](NC(=O)[C@H](C)NC(=O)[C@@H](NC(=O)[C@H](CC(=O)O)NC(=O)[C@H](CCCCN)NC(=O)[C@H](CO)NC(=O)[C@@H](NC(=O)[C@H](CC(N)=O)NC(=O)[C@H](C)NC(=O)[C@@H](NC(=O)[C@H](CCC(=O)O)NC(=O)[C@H](CCCCN)NC(=O)[C@@H](NC(=O)[C@@H](NC(=O)[C@H](Cc1c[nH]cn1)NC(=O)[C@H](CCCCN)NC(=O)[C@@H](NC(=O)[C@H](CCCCN)NC(=O)[C@H](CCCCN)NC(=O)[C@@H](NC(=O)[C@H](CC(C)C)NC(=O)[C@H](CCCCN)NC(=O)[C@H](CC(N)=O)NC(=O)[C@H](Cc1ccccc1)NC(=O)[C@H](CCCNC(=N)N)NC(=O)[C@H](CCCCN)NC(=O)[C@H](CCCNC(=N)N)NC(=O)[C@H](Cc1ccccc1)NC(=O)CN)C(C)C)C(C)C)[C@@H](C)O)[C@@H](C)CC)[C@@H](C)O)C(C)C)C(C)C)C(=O)N[C@H](C(=O)N[C@@H](C)C(=O)NCC(=O)N[C@@H](CO)C(=O)NCC(=O)N[C@H](C(=O)N[C@@H](C)C(=O)N[C@H](C(=O)NCC(=O)N[C@@H](C)C(=O)N[C@@H](C)C(=O)N[C@@H](CCSC)C(N)=O)C(C)C)C(C)C)C(C)C — MIC (E. coli, K. pneumoniae, A. baumannii; CAMHB with 10% human serum): ~0.063 µg/mL

Repeated from above:
CC(C)C[C@@H]1NC(=O)[C@H](C)NC(=O)[C@H](NC(=O)[C@H](CO)NC(=O)[C@@H](CCCCN)NC(=O)[C@@H](C)NC(=O)[C@@H](N)Cc2ccccc2)[C@H](C(N)=O)OC(=O)[C@H](CC(C)C)NC1=O — MIC (Bacillus subtilis Bacillus subtilis; ATCC 6051; tested as TFA salt): 4 to 8 µg/mL
COc1ccc(C2=[N+]([O-])c3ccccc3N3CCN=C23)cc1 — MIC (Peptostreptococcus anaerobius): 0.25 µg/mL
CCCCc1ccc(-c2nc(C)c(C(C)=NNC(=N)N)s2)cc1 — MIC (Staphylococcus aureus; NRS194 MRSA): 1.3 µg/mL
